# Results collected from several papers.
# Each numbered part is a random draw from the data of one study; scales do not carry over between parts. Substitutions count along the parent as printed.

# Series 1
# Target: RING finger protein unkempt homolog, zinc fingers 1-6, GST-SBP tag (UNK, Homo sapiens, UniProt Q9C0B0, residues 30-357)
# Sequence of UniProt Q9C0B0 (30-357, looked up): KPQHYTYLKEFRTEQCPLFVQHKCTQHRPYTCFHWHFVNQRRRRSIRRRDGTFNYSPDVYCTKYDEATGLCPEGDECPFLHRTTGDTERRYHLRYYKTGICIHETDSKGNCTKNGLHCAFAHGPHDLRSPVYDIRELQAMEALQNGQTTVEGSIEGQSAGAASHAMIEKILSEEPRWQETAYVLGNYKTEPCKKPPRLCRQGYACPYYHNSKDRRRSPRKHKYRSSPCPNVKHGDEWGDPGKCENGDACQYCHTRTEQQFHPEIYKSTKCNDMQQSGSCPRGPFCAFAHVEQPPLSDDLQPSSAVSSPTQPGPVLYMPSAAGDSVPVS
# Method: RNA Bind-n-Seq
# Form: RNA
# Sample: in vitro
# Concentration: not given
# Notes: RNA with constant flanks, human and mouse sites, ends assumed
# Reference: input RNA pool
# Direction: higher = stronger binding
# Shared flanks, not repeated: GGGAGUUCUACAGUCCGACGAUC … CAACAGAGGAUUGAGCAUCA
Strand,bound/input enrichment [ratio]
GCUGUCCGGAAGGUCCUACAUAAGGACAAGUCACAAGAGAAUGCAGGCAUGUUCAAGAAUGGAGGCCUCCUUUUCCGAAUAGCCCUACUUACCAUUGGAGGCACCAGCAUGCUUUAUAUA,0.361
GCCACAUCCGGUGAUAUUUGGCCUGGCCUUUCAGCUUAUGAUAAUAGUCCUAGAUCACCCCAUAGUCCUUCACCUAUUGCUACACCACCUAGUCAGAGUUCAUCUUGCUCUGAUGCUCCC,5.98
UGAAGAGCUACUAUGAAGAUCAGGGUAUCCCAGCCAGCAUCACGUUUUUCAGUCCCUCCGGCCUUAAAUACAGCCUCGAGUAUAUUCAGGCGUUAUCUGGCAGCAGCUUUGACCAGAUUA,0.266
GCAUGGCUGACCAACUGACUGAAGAGCAGAUUGCAGAAUUCAAAGAAGCUUUUUCACUAUUUGACAAAGAUGGUGAUGGAACUAUAACAACAAAGGAAUUGGGAACUGUAAUGAGAUCUC,0.17
GGAUUUAAAAGAAGAGAGAGGAGGAAAAAUGAAUUUUGAAAACUUCUAGAGAAUAUAAAUCUAUAAAGGAAUGAAGAAAAGACUUAUUUGGAAAUUAUAAUUUAUAUUUGCCUAAAGGAG,0.811
AAGAUAAAACCAGAAAUACAUCCUGAAGAACGAAUGAACGGACAAGAAGUAUUUUAUCUGACUUACACCUCUGAAGAUGUGGAAGGGAAUGUUCAGCUGGAAACUGGAGAUAAAAUUAAC,0.204
UCCUUGCCUUCUGCUCUUUCAUUAGCUCUAGGAUUCUGAGUGAAUUCUAGAAAUAAUGAAGGGAAAACUGAUAAGAUAGCUCUCAUGCAAAUGUCAUUAGUUAAGUAAUUGUUCUAGUGU,1.01
ACUUUGAUUUUACAUGUUUUCUUGUAAAUAAGCCUGCCUUCCUACCUGGAAUUUGUGUGUGUGUGACUAAUACAUGUUCUACGAGUUAACUACUUUGGCAGUUUUAAUCAUUUCUUCUUU,0.202

# Series 2
# Target: ABI1, truncated, D143A, DHFR fusion (Arabidopsis thaliana)
# Method: DHFR PCA, deep sequencing
# Sample: yeast
# Notes: methotrexate growth selection, single substitutions
# With: (+)-ABA 58 µM
# Reference: wild-type fitted maximum
# Direction: higher = stronger binding
# Starting sequence: PYL1, truncated, DHFR fusion (Arabidopsis thaliana); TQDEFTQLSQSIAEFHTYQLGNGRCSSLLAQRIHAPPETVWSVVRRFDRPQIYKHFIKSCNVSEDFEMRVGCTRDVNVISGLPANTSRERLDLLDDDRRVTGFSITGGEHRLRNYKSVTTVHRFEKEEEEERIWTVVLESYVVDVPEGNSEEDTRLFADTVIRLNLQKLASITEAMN; partner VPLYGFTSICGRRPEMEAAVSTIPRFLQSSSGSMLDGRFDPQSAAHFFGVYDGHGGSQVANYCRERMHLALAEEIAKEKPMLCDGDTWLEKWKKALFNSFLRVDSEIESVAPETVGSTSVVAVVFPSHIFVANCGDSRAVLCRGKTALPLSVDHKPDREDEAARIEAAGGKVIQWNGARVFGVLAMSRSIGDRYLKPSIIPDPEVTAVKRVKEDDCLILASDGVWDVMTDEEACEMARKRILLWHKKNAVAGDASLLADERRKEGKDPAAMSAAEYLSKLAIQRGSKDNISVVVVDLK
Variant,relative binding score
T106F,94%
T154D,-5.99%
D3L,83.4%
R113I,77.8%
I52P,15.8%
R155G,23.5%
I79S,78.3%
N177S,82.4%

# Series 3
# Target: TAR DNA-binding protein 43, full length, His tag (TARDBP, Homo sapiens, UniProt Q13148, residues 1-414)
# Method: RNA Bind-n-Seq
# Form: RNA
# Sample: in vitro
# Concentration: 20 nM
# Notes: 6-mer, flanks averaged, single round
# With: 150 mM KCl
# Reference: input library
# Direction: higher = stronger binding
Strand,6-mer enrichment (R)
UCGGGU,1.59
CCUCAC,0.602
GGGGUC,3.68
ACAGGA,0.941
CUCAUC,0.537
CACUAC,0.599
AGAUGU,0.815
ACGAAG,0.971

# Mixed results
Molecule,target,read-out,form,concentration,endpoint,value
RRSLLAHVR,"HLA class I histocompatibility antigen, A alpha chain, allele A*26:03 (Homo sapiens, UniProt P04439)",peptide-MHC binding,peptide,concentration not given,binding,inactive

# Excerpt of the above (series 3):
Strand,6-mer enrichment (R)
CACUAC,0.599
AGAUGU,0.815
